Results from different studies.
Protocols differ between the studies behind these lines. ± gives the spread as reported.
CYP2C19: Cytochrome P450 2C19 (CYP2C19, Homo sapiens, UniProt P33261)
UniProt P33261, sequence (whole entry, looked up): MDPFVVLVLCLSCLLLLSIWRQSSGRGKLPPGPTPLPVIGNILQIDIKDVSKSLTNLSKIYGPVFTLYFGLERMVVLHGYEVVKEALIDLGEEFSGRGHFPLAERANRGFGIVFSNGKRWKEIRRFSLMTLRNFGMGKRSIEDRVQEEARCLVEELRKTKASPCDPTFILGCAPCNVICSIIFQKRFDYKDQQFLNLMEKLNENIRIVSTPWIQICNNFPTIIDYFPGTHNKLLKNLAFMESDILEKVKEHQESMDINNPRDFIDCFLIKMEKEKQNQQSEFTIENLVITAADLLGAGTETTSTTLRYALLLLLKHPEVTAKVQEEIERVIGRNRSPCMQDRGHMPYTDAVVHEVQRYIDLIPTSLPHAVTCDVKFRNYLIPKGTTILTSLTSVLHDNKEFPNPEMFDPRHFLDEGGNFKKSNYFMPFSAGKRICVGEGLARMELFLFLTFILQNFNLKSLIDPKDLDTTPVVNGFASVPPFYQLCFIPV
UniProt P61073, sequence (whole entry, looked up): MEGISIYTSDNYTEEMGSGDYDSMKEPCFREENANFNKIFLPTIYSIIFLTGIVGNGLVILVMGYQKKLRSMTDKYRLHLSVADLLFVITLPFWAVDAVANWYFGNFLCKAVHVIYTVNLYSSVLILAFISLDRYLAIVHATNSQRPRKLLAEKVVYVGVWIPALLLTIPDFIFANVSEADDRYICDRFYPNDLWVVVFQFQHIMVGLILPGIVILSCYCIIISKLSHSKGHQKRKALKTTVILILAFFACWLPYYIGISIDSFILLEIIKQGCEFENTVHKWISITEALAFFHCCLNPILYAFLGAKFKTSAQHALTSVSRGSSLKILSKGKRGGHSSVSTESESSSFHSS
UniProt Q06520, sequence (whole entry, looked up): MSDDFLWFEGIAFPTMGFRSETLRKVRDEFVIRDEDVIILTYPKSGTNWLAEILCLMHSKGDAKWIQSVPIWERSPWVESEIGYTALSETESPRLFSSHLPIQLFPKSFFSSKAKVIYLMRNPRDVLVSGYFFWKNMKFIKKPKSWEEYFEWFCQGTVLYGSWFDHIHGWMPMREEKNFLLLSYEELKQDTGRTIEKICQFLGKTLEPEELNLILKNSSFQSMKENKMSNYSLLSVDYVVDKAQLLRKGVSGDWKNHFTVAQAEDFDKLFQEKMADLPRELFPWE

O=C(O)CCC(NP(=O)(O)OCCC[C@@H](NC(=O)CCC(NC(=O)CCCCCNC(=O)CCCCCNC(=O)c1ccc([18F])cc1)C(=O)O)C(=O)O)C(=O)O (stereo partly shown)
tracer uptake (CWR22Rv1 tumour model; host not given, liver; intravenous, 1 h, tumour-bearing): 0.49 %ID/g

C=C(C)[C@@H]1CCC(CO)=C[C@H]1c1c(O)cc(CCCCC)cc1O
half-life (CYP2C19; concentration not given, single dose, together with: fluconazole 200 mg once daily): 19.3 h

CN(C)CC1CCCCC1(O)c1cccc(O)c1 (stereo not shown)
Papp B to A (P-glycoprotein; Caco-2 TC7; 1 µM, 3 h, pH 7.4, together with: cyclosporin A 10 µM): 19.3 ± 0.5 ×10⁻⁶ cm/s

C[C@]12CC[C@H](O)CC1CCC1C2[C@H](O)C(=O)[C@]2(C)[C@@H](c3ccc(=O)oc3)CC[C@]12O (stereo partly shown)
CLint (SULT2A1 (Homo sapiens, UniProt Q06520); sulfation, substrate; recombinant enzyme; pH 7.4): 75.9 µL/min/mg

CNc1nc(SC)nc2ccccc12
intrinsic clearance (human liver microsomes): 9.7 mL/min/g

Nc1nc2c([C@@H]3O[C@@H]4COP(=O)(O)O[C@H]5[C@@H](O)[C@H](n6cnc7c(=O)[nH]c(N)nc76)O[C@@H]5COP(=O)(O)O[C@H]4[C@H]3O)snc2c(=O)[nH]1
absorption maximum (water): 331 nm

CSCC[C@@H]1NC(=O)[C@@H]2CSSC[C@H](NC(=O)[C@H](CO)NC(=O)[C@H](C)N)C(=O)N[C@@H](CCCNC(=N)N)C(=O)N[C@@H]([C@@H](C)O)C(=O)N3CCC[C@H]3C(=O)N[C@@H](CCCCN)C(=O)N[C@@H](CC(=O)O)C(=O)N[C@H]3CSSC[C@H](NC(=O)[C@H](CCCCN)NC(=O)[C@H](CCCNC(=N)N)NC(=O)[C@H](CC(N)=O)NC1=O)C(=O)N[C@@H](CCCCN)C(=O)N[C@H]1CSSC[C@H](NC(=O)[C@@H]4CCCN4C(=O)[C@H](CC(=O)O)NC(=O)[C@H](C)NC3=O)C(=O)N[C@@H](C)C(=O)N[C@@H](CCCCN)C(=O)N[C@@H](CCC(=O)O)C(=O)N[C@@H]([C@@H](C)O)C(=O)NCC(=O)N[C@@H](CSSC[C@@H](C(N)=O)NC(=O)[C@H](CCCNC(=N)N)NC(=O)[C@H](CC(N)=O)NC1=O)C(=O)N1CCC[C@H]1C(=O)N[C@@H](Cc1ccc(O)cc1)C(=O)NCC(=O)N[C@@H](CCCCN)C(=O)N2
Creatinine (DA rat pristane-induced arthritis, serum; subcutaneous, 0.1 mg/kg every other day, 21 days): 0.16 mg/dL

COc1ccc(CNc2nc(N3CCC[C@H]3CO)ncc2C(=O)NNC(=O)c2cnc(N3CCC[C@H]3CO)nc2NCc2ccc(OC)c(Cl)c2)cc1Cl
revertant count (Salmonella typhimurium; TA102; 250 µg/plate): 262 ± 8

C=C(C)[C@@H]1CCC(C(=O)O)=C[C@H]1c1c(O)cc(CCCCC)cc1O
decrease in Cmax (CYP2C19; concentration not given, single dose, together with: fluconazole steady state): 48%

CCC(=O)N(C)c1ccc(Cl)c(Cl)c1
revertants (Salmonella typhimurium; Ames test; TA1537; 0.10 mg/plate, with rat liver S9): 2 ± 1.2 revertants/plate

COc1ccc2nc(C)cc(OCC(=O)Nc3cc(C)cc(C)c3)c2c1
intrinsic clearance (mouse liver microsomes): > 30 mL/min/g

O=C(O)CCC(NP(=O)(O)OCCC[C@@H](NC(=O)CCC(NC(=O)c1ccc([18F])cc1)C(=O)O)C(=O)O)C(=O)O (stereo partly shown)
tracer uptake (CWR22Rv1 tumour model; host not given, spleen; intravenous, 2 h, tumour-bearing): 0.87 %ID/g

COc1cc(C(=O)NCCOCCOCCOCCNC(=O)c2ccc([18F])nc2)ccc1NC(=O)C1NC(CC(C)(C)C)C(C#N)(c2ccc(Cl)cc2F)C1c1cccc(Cl)c1F (stereo not shown)
tracer uptake (HepG2 tumour model; host not given, stomach; 4 h, tumour-bearing): 0.94 %ID/g

Nc1nc2c([C@@H]3O[C@@H]4COP(=O)(O)O[C@H]5[C@@H](O)[C@H](n6cnc7c(=O)[nH]c(N)nc76)O[C@@H]5COP(=O)(O)O[C@H]4[C@H]3O)scc2c(=O)[nH]1
molar absorption coefficient (water): 3540 M⁻¹ cm⁻¹

Cc1ccc(-n2cc(C3(c4ccc5c(c4)OC(F)(F)O5)CC3)nn2)cc1-c1cccc(C(=O)O)c1
intrinsic clearance fold increase (human liver microsomes; relative to: analogous amide): ~5

O=C(O)CCC(NP(=O)(O)OCCC[C@@H](NC(=O)CCC(NC(=O)CCCCCNC(=O)c1ccc([18F])cc1)C(=O)O)C(=O)O)C(=O)O (stereo partly shown)
tracer uptake (CWR22Rv1 tumour model; host not given, lung; intravenous, 1 h, tumour-bearing): 0.43 %ID/g

C[C@@](O)(C(F)F)[C@H](NC(=O)c1ccc(C#CC#CC2CC2)cc1)C(=O)NO
Vd (rat, plasma; intravenous, 40 mg/kg): 2 L/kg

COc1ccc(CNc2nc(N3CCC[C@H]3CO)ncc2C(=O)NN)cc1Cl
revertant count (Salmonella typhimurium; TA98; 1000 µg/plate, 48 h): 33 ± 4

N#Cc1cccc(-c2ccccc2C(N)=O)c1
CC50 (human cells; 24 (unit not given)): 18.8 µM

CC[C@H](C)C(=O)N1CCC(NC(=O)Nc2ccc(OC(F)(F)F)c(F)c2)CC1
subjects with extrasystoles TEAE (healthy volunteers; oral, 0.5 mg single dose, ventricular extrasystoles): 0%

CN(C)C(CNC(=O)Nc1cc(C(F)(F)F)ccc1N1CCOCC1)c1ccncc1 (stereo not shown)
blood urea nitrogen (mouse, serum; intraperitoneal, 120 mg/kg single dose): 27 mg/dL

CN[C@](C)(C[18F])C(=O)O
tracer uptake (A549 tumour model; host not given, liver; 30 min, tumour-bearing): 4.6 %ID/g

CC(C)C[C@H](NC(=O)[C@H](CC(N)=O)NC(=O)[C@H](CCCCN)NC(=O)[C@H](CC(C)C)NC(=O)[C@H](Cc1ccccc1)NC(=O)CNC(=O)[C@H](CC(C)C)NC(=O)[C@@H](N)Cc1ccccc1)C(=O)N[C@@H](Cc1ccccc1)C(N)=O
CC50 (Huh-7.5.1; cell growth or viability, MTT; 48 h): 79.8 µg/mL

CN1C(=O)[C@@H](Cc2ccc(O)cc2)NC(=O)CNC(=O)[C@H](Cc2ccc3ccccc3c2)NC(=O)[C@H](CCCNC(=N)N)NC(=O)[C@H]1CCCNC(=O)c1ccc(CNC(=O)CN2CCN(CC(=O)O)CCN(CC(=O)O)CCN(CC(=O)O)CC2)cc1 [gallium-68 labelled]
SUVmax (CXCR4 (Homo sapiens, UniProt P61073); PET; human, NSCLC lesion): 3.86

N[C@]1(c2ccccc2Cl)CCC[C@H](O)C1=O
AUC(0-inf) (Wistar rat, plasma; intravenous, 20 mg/kg): 29200 ± 6420 ng·h/mL

Some of these lines once more:
CN[C@](C)(C[18F])C(=O)O
tracer uptake (A549 tumour model; host not given, liver; 30 min, tumour-bearing): 4.6 %ID/g

COc1ccc(CNc2nc(N3CCC[C@H]3CO)ncc2C(=O)NNC(=O)c2cnc(N3CCC[C@H]3CO)nc2NCc2ccc(OC)c(Cl)c2)cc1Cl
revertant count (Salmonella typhimurium; TA102; 250 µg/plate): 262 ± 8
